Published values from different studies.
Values joined by “and” are separate records of one study, mostly repeats; a detail may differ. ± marks the error that the study gave.
UCHL1: Ubiquitin carboxyl-terminal hydrolase isozyme L1 (UCHL1, Homo sapiens, UniProt P09936)
Chain of UniProt P09936 (whole entry, looked up): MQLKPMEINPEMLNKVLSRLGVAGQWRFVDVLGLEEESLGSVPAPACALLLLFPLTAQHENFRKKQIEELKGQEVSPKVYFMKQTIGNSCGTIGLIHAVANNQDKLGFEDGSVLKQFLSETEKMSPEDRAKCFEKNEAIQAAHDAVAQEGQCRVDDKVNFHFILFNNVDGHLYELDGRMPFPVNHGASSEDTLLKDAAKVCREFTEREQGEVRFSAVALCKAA
Chain of UniProt Q07794 (whole entry, looked up): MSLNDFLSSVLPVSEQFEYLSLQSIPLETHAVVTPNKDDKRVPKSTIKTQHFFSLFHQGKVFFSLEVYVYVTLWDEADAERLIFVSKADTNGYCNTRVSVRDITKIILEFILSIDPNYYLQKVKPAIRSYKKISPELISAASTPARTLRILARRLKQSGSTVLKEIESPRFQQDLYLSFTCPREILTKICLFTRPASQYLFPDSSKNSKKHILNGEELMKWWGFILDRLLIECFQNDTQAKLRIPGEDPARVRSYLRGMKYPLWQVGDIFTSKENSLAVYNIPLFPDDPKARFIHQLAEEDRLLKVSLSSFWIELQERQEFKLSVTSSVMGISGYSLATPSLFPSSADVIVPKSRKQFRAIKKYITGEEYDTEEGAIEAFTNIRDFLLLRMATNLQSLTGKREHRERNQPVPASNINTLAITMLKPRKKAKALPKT

| Structure (SMILES) | target or system | test | system | setting | how to read | measurement | result |
| --- | --- | --- | --- | --- | --- | --- | --- |
| O=C(CCl)Nc1ccc(C2=C(c3ccc(O)cc3)C3CC(S(=O)(=O)Oc4ccccc4)C2O3)cc1 (stereo not drawn) | MCF-10A | cell viability | – | 72 (unit not given) | – | IC50 | 9.02 ± 0.27 µM |
| CSc1ccc(OCc2ncc([N+](=O)[O-])n2C)cc1 | pigeon embryo fibroblasts | – | – | – | – | CC50 | ~200 µM |
| C=CC(=O)Nc1ccc(OS(=O)(=O)C2CC3OC2C(c2ccc(O)cc2)=C3c2ccc(O)cc2)cc1 (stereo not drawn) | MCF-10A | cell viability | – | 72 (unit not given) | – | IC50 | 20 ± 3.61 µM |
| Oc1c(Br)cc(Br)c2cccnc12 | pigeon embryo fibroblasts | – | – | – | – | CC50 | 30 µM |
| O=C(Nc1[nH]nc(-c2ccccn2)c1C1CC1)N1CC[C@@H](Cn2cc(C(F)(F)F)cn2)C1 | Trypanosoma cruzi | reporter translation, Renilla luciferase mRNA translation | cell-free extract | 40 µM | relative to: DMSO | inhibition | 9% |
| Cc1nn(-c2nc3ccc(Cl)c(Cl)c3[nH]2)c(O)c1C1OC(=O)c2ccccc21 (stereo not drawn) | RAW-ISG (mouse) | cell viability, CCK-8 | – | 24 h | – | CC50 | 70.1 µM |
| Cc1cccc(C)c1OCC(=O)N[C@@H](Cc1ccccc1)[C@@H](O)C[C@H](Cc1ccccc1)NC(=O)[C@H](C(C)C)N1CCCNC1=O | HEK293T tetracycline-induced EGFP-ΔE | cytotoxicity | – | – | relative to: vehicle | EC50 | 37.2 µM |
| CC(=NNC(=O)COc1ccc2c(C)c(Cc3ccccc3)c(=O)oc2c1C)c1ccc(Br)cc1 | HPrEC normal prostate epithelial cells | MTT | – | 100 µg/mL, 2% serum | – | viability | 44.7% |
| COc1cc2ncnc(Nc3ccc(F)c(Cl)c3)c2cc1NC(=O)/C=C/CN1CCCCC1 | U87 | – | – | concentration not given | – | cytotoxicity | toxic |
| CC(C)=CC(=O)Nc1ccc(C2=C(c3ccc(O)cc3)C3OC2CC3S(=O)(=O)N(CC(F)(F)F)c2ccc(F)cc2)cc1 (stereo not drawn) | MCF-10A | cell viability | – | 72 (unit not given) | – | IC50 | > 50 µM |
| Cc1ccc(C(=O)CC#N)cc1 | UCHL1 | covalent, intact protein LC-MS | – | 12.5 µM | – | labelling | 6.99% |
| Cc1noc(C)c1Cn1cc(N2C(=O)CN(Cc3cccc(O)c3)C2=O)cn1 | human blood lymphocytes | – | – | 296.6 µg/mL, 3 h | – | aberrant cells with gaps | 2% |
| O=C(CBr)Nc1ccc(C2=C(c3ccc(O)cc3)C3OC2CC3S(=O)(=O)Oc2ccccc2)cc1 (stereo not drawn) | MCF-10A | cell viability | – | 72 (unit not given) | – | IC50 | 8.08 ± 0.22 µM |
| CCCCCC[P+](/C=C(/c1ccccc1)c1cc(Cl)ccc1O)(CCCCCC)CCCCCC.[Cl-] | human red blood cells | – | PBS | 1 h, 37 °C | – | HC50 | 19 µM |
| COc1ncnc(C2CC2)c1-c1ncc2cnn(Cc3ccc(-c4nc(C(F)(F)F)cn4C(C)C)cc3)c2n1 | CHP-212 parental | SRB | – | 25 µM | – | viability | 67% and 70.5% |
| CCOC(=O)c1c(C)nc2ccc(-c3ccc(F)c(F)c3)cc2c1O | MCF-10A | MTT | – | up to 100 µM | – | cytotoxicity | not toxic |
| CC(C)C[C@H](NC(=O)[C@H](Cc1ccccc1)NC(=O)c1cnccn1)B(O)O | CHP-212 parental | SRB | – | 0.3704 µM | – | viability | 100% and 95.6% |
| CCCC[P+](/C=C(/c1ccccc1)c1cc(Cl)ccc1OC)(CCCC)CCCC.[I-] | human red blood cells | – | PBS | 1 h, 37 °C | – | HC50 | 105 µM |
| CC(C)=CC(=O)Nc1ccc(C2=C(c3ccc(O)cc3)C3CC(S(=O)(=O)N(CC(F)(F)F)c4ccccc4)C2O3)cc1 (stereo not drawn) | MCF-10A | cell viability | – | 72 (unit not given) | – | IC50 | > 50 µM |
| O=C(C1CCCN(Cc2ccc(Cl)cc2)C1)N1CCCCC1.O=C(O)C(=O)O (stereo not drawn) | Trypanosoma cruzi | reporter translation, Renilla luciferase mRNA translation | cell-free extract | 40 µM | relative to: DMSO | inhibition | -4% |
| Cc1cccc(C)c1OCC(=O)NC(CCC(Cc1ccccc1)NC(=O)C(C(C)C)N1CCCNC1=O)Cc1ccccc1 (stereo not drawn) | HEK293T ΔE | cytotoxicity, refers to: cell count | – | – | relative to: vehicle | EC50 | 40.7 µM |
| CN(C)[C@@H]1C(O)=C(C(N)=O)C(=O)[C@@]2(O)C(O)=C3C(=O)c4c(O)ccc(Cl)c4[C@@](C)(O)[C@H]3C[C@@H]12 | pigeon embryo fibroblasts | – | – | – | – | CC50 | 40 µM |
| C[C@]12CC[C@@H]3c4ccc(O)cc4C[C@@H](CCCCCCCCC[S+]([O-])CCCC(F)(F)C(F)(F)F)[C@H]3[C@@H]1CC[C@@H]2O (stereo partly drawn) | MCF7 | CCK-8 | – | 10 nM | relative to: untreated | viability | 72.6% and 70.3% and 63.3% |
| Cc1ccc(-c2nsc(N)n2)o1 | Histone acetyltransferase RTT109, with Vps75 (Saccharomyces cerevisiae, UniProt Q07794) | enzyme activity, inhibitor, HTS, CPM-based, dose response | – | – | – | IC50 | > 125 µM |

| Structure (SMILES) | target or system | test | system | setting | how to read | measurement | result |
| --- | --- | --- | --- | --- | --- | --- | --- |
| COc1ccc(OC)c(-c2csc(NC(=O)CCl)n2)c1 | UCHL1 | covalent, intact protein LC-MS | – | 12.5 µM | – | labelling | 11% |
| Cc1nn(-c2nc3c(F)cc(F)cc3s2)c(O)c1C(c1ccc(C(F)(F)F)cc1)c1c(C)nn(-c2nc3c(F)cc(F)cc3s2)c1O | THP1-Dual | cell viability, CCK-8 | – | 24 h | – | CC50 | 64.5 µM and 74.7 µM |
| [N-]=[N+]=N[C@]1(CO)O[C@@H](n2ccc(N)nc2=O)[C@@H](F)[C@@H]1O | A549-hACE2 | cytotoxicity | – | 24 (unit not given) | – | CC50 | > 100 µM |
| C[C@]12CC[C@@H]3c4ccc(O)cc4C[C@@H](CCCCCCCCC[S+]([O-])CCCC(F)(F)C(F)(F)F)[C@H]3[C@@H]1CC[C@@H]2O (stereo partly drawn) | MCF-10A | cell viability | – | 72 (unit not given) | – | IC50 | > 50 µM |
| COc1cccc2c1C(=O)c1c(O)c3c(c(O)c1C2=O)C[C@@](O)(C(=O)CO)C[C@@H]3O[C@H]1C[C@H](N)[C@H](O)[C@H](C)O1 | CHP-212 parental | SRB | – | 3.333 µM | – | viability | 2.73% and 2.99% |
| C#Cc1cccc(Nc2ncnc3cc(OCCOC)c(OCCOC)cc23)c1 | HPrEC normal prostate epithelial cells | MTT | – | 25 µg/mL, 2% serum | – | viability | 49% |
| CC/C(=C(/c1ccc(OCCNC)cc1)c1ccc(B2OC(C)(C)C(C)(C)O2)cc1)c1ccccc1 | MCF7 | – | – | 0.1 µM | relative to: vehicle | cell growth | 69% |
| CCCCCCCC[P+](/C=C(/c1ccccc1)c1cc(Cl)ccc1O)(CCCCCCCC)CCCCCCCC.[Cl-] | human red blood cells | – | PBS | 1 h, 37 °C | – | HC50 | 140 µM |
| COC(=O)Nc1nc2cc(C(=O)c3ccc(F)cc3)ccc2[nH]1 | pigeon embryo fibroblasts | – | – | – | – | CC50 | 40 µM |
| C[C@](C#N)(COc1cc(C#N)ccc1C(F)(F)F)NC(=O)c1ccc(SC(F)(F)F)cc1 | MCF-10A | – | – | 50 µM, 48 (unit not given) | relative to: negative control | cytotoxicity | 18.2 ± 2.93% |
| Cc1nc(C)c(Cl)c(O)c1Cl | pigeon embryo fibroblasts | – | – | – | – | CC50 | 50 µM |
| CCOC(=O)c1c(C)nc2ccc(-c3ccc(OCc4ccccc4)c(F)c3)cc2c1O | MCF-10A | MTT | – | up to 100 µM | – | cytotoxicity | not toxic |
| COc1cccc(-c2n[nH]c(SCc3ccccn3)n2)c1OC | CHO-WBL | – | – | 100 µg/mL, 3 h, added: rat liver S9 | – | micronuclei per binucleated cell | 0.02 |
| CCCC[P+](/C=C(/c1ccccc1)c1cc(Cl)ccc1O)(CCCC)CCCC.[Cl-] | human red blood cells | – | PBS | 1 h, 37 °C | – | HC50 | 110 µM |
| Cc1ncc([N+](=O)[O-])n1CCOC(=O)c1ccccc1 | pigeon embryo fibroblasts | – | – | – | – | CC50 | ~200 µM |
| CCCCC[P+](/C=C(/c1ccccc1)c1cc(Cl)ccc1O)(CCCCC)CCCCC.[Cl-] | human red blood cells | – | PBS | 1 h, 37 °C | – | HC50 | 180 µM |
| CC(=O)O[C@H]1C(=O)[C@@]2(C)[C@H]([C@H](OC(=O)c3ccccc3)[C@]3(O)C[C@H](OC(=O)[C@H](O)[C@@H](NC(=O)c4ccccc4)c4ccccc4)C(C)=C1C3(C)C)[C@]1(OC(C)=O)CO[C@@H]1C[C@@H]2O | CHP-212 parental | SRB | – | 0.01372 µM | – | viability | 66.1% and 76.7% |
| CN1C[C@@H]2C[C@H]1CN2c1cc2c(cc1F)c(=O)c(C(=O)O)cn2C1CC1 | MDCK-II parental | apical-to-basolateral transport, transepithelial transport | HBSS with HEPES | 10 µM, 4 h | – | percent transported | 18.3 ± 4.03% |
| Cc1cc(C(=O)NC(C)(C)COc2cccc3c2C(N)=NS(=O)(=O)N3)cc(C)n1 | human peripheral blood lymphocytes | CBPI, preliminary test | – | 600 µg/mL, 4 h | relative to: vehicle control | cytotoxicity | 5% |
| CCN(c1ccc(O)cc1)S(=O)(=O)C1CC2OC1C(c1ccc(O)cc1)=C2c1ccc(NC(=O)C=C(C)C)cc1 (stereo not drawn) | MCF-10A | cell viability | – | 72 (unit not given) | – | IC50 | 8.72 ± 0.45 µM |
| COC[C@@H](CC(C)C)NC(=O)c1ccc(C)c(C)c1 | primary human lymphocytes | refers to: structural aberrations | – | 280 µg/mL, 4 h, without S9 | – | cells with aberrations | 0% |
| CCCCCCN(Cc1ccccc1)Cc1ccc(CNC(=O)c2csc3nc[nH]c(=O)c23)cc1 | human red blood cells | – | – | 100 µM, 1 h | – | hemolysis | ~7% |
| Cc1c(O)cccc1C(=O)N[C@@H](CSc1ccccc1)[C@H](O)CN1C[C@H]2CCCC[C@H]2C[C@H]1C(=O)NC(C)(C)C | HEK293T tetracycline-induced EGFP-ΔE | cytotoxicity | – | – | relative to: vehicle | EC50 | 4.2 µM |
| CC(C)=CC(=O)Nc1ccc(OS(=O)(=O)C2CC3OC2C(c2ccc(O)cc2)=C3c2ccc(O)cc2)cc1 (stereo not drawn) | MCF-10A | cell viability | – | 72 (unit not given) | – | IC50 | 43.8 ± 2.85 µM |
